Measured values collected from several papers.
Each line is one published result; not all experiments were run side by side. Numbers after ± are the reported error.

Cc1cc(C)c(N2CCN(c3c(C)cc(C)cc3C)C2=[Se])c(C)c1.[Cl][Ag] — IC50 (H157 spheroids; acid phosphatase; 72 h, 3D spheroid): 23.4 ± 4.2 µM
CCC(C)C1OC(=O)C(NC(=O)c2cccc(NC=O)c2O)C(C)OC(=O)C(C(C)CC)OC(=O)C(C)(C)C(=O)C(Cc2ccccc2)OC1=O (centres unmarked) — IC50 (PC-9; cell growth or viability, CCK-8; 72 h): 0.0308 µM
CN(C)C(=O)c1cncc(N2Cc3cnn(Cc4ccc(F)cc4)c3C2)n1 — IC50 (HEK293 expressing GluA1 and GluA2; cell death, CellTox Green; 24 h, together with: glutamate, AMPA 10 µM): 0.2 µM
C[C@H](N)[C@@H](CCCCCCCCCCCCCCC(=O)CCCCCCC[C@@H](O)[C@@H](C)N)O[C@@H]1O[C@H](CO)[C@H](O)[C@H](O)[C@H]1O — IC50 (HCC70; cell growth or viability, resazurin; 96 h): 2.85 µM
Cc1cc(C)c(-n2ccn(-c3c(C)cc(C)cc3C)c2=[Se])c(C)c1.[Cl][Au] — IC50 (A2780 ADR; MTT; 72 h): 0.3 ± 0.03 µM
N.N.O=C([O][Pt]([OH])([Cl])[Cl])c1ccc(P(c2ccccc2)c2ccccc2)cc1.[Cl][Au] — IC50 (CAKI-1; cell growth or viability, resazurin; 72 h): 5 µM
N=C(N)NCCC[C@H](NC(=O)[C@@H]1CSSC[C@H](NC(=O)[C@H](Cc2ccc3ccccc3c2)NC(=O)[C@H](CCCNC(=N)N)NC(=O)[C@H](CCCNC(=N)N)NC(=O)c2ccc(F)cc2)C(=O)N[C@@H](Cc2ccc(O)cc2)C(=O)N[C@@H](CCCNC(N)=O)C(=O)N[C@@H](CCCCNC(=O)CN2CCN(CC(=O)O)CCN(CC(=O)O)CCN(CC(=O)O)CC2)C(=O)N[C@H](CCCCNC(=O)CN2CCN(CC(=O)O)CCN(CC(=O)O)CCN(CC(=O)O)CC2)C(=O)N2CCC[C@H]2C(=O)N[C@@H](Cc2ccc(O)cc2)C(=O)N[C@@H](CCCNC(=N)N)C(=O)N[C@@H](CCCNC(N)=O)C(=O)N1)C(N)=O [copper-64 labelled] — IC50 (human red blood cells; binding, homologous displacement; 45 min, room temperature): 0.0558 µM
C=C(C(=O)OC)[C@@H]1CC[C@@]2(C)CCC(=O)C(C)=C2C1 — IC50 (human Neutrophil; superoxide release, inhibitor, absorbance): > 10 µM
O=C(C[P+]([Au-][Cl])(c1ccccc1)c1ccccc1)[O][Ti+2][O]C(=O)C[P+]([Au-][Cl])(c1ccccc1)c1ccccc1.c1cc[cH-]c1.c1cc[cH-]c1 — IC50 (CAKI-1; cell viability, XTT; 72 h): 2.2 µM
C[C@H](NC(=O)[C@H](CCCNC(=N)N)NC(=O)[C@H](CCCNC(=N)N)NC(=O)[C@@H]1CCCN1C(=O)CNC(=O)[C@H](CCCNC(=N)N)NC(=O)[C@H](CCCNC(=N)N)NC(=O)CN)C(=O)N[C@@H](CC(N)=O)C(=O)N[C@@H](CCC(N)=O)C(=O)N[C@@H](CC(N)=O)C(=O)NCC(=O)N[C@H](C(=O)N[C@@H](CCCNC(=N)N)C(=O)N[C@@H](CCCNC(=N)N)C(=O)N[C@@H](CCCNC(=N)N)C(=O)N[C@@H](CCCNC(=N)N)C(=O)N[C@@H](CCCNC(=N)N)C(=O)N[C@@H](CCCNC(=N)N)C(=O)N[C@H](C(N)=O)[C@@H](C)O)[C@@H](C)O — IC50 (SK-BR-3; cell viability, CellTiter-Blue; 24 h, serum-free medium): > 100 µM
C#CCN[C@@H]1C=C[C@]2(O[C@H]([C@@H](CC)C(=O)[C@@H](C)[C@@H](O)[C@H](C)[C@@H]3O[C@@H]([C@@H](CC)C(=O)O)CC[C@@H]3C)[C@@H](C)C[C@H]2C)O[C@@]12CC[C@@](C)([C@H]1CC[C@](O)(CC)[C@H](C)O1)O2 — IC50 (HMLER CD24low/CD44high; cell proliferation; 72 h): 0.13 ± 0.01 µM
[Cl][Au].[Se]=c1n(C2CCCCC2)ccn1C1CCCCC1 — IC50 (H157 spheroids; acid phosphatase; 72 h, 3D spheroid): 5.3 ± 0.1 µM
CC[C@H](C)[C@H](NC(=O)CNC(=O)[C@H](C)NC(=O)[C@@H]1CCCN1C(=O)CNC(=O)[C@H](C)NC(=O)[C@H](CCC(=O)O)NC(=O)[C@H](C)NC(=O)[C@H](CC(=O)O)NC(=O)[C@H](C)NC(=O)[C@H](CCC(=O)O)NC(=O)[C@H](C)NC(=O)[C@H](CCC(=O)O)NC(=O)[C@@H]1CCCN1C(=O)[C@H](CCC(=O)O)NC(=O)CNC(C)=O)C(=O)NCC(=O)N[C@@H](C)C(=O)N[C@H](C(=O)N[C@@H](CC(C)C)C(=O)N[C@@H](CCCCN)C(=O)N[C@H](C(=O)N[C@@H](CC(C)C)C(=O)N[C@H](C(=O)N[C@H](C(=O)NCC(=O)N[C@@H](CC(C)C)C(=O)N1CCC[C@H]1C(=O)N[C@@H](C)C(=O)N[C@@H](CC(C)C)C(=O)N[C@H](C(=O)N[C@@H](CO)C(=O)N[C@@H](Cc1c[nH]c2ccccc12)C(=O)N[C@H](C(=O)N[C@@H](CCCCN)C(=O)N[C@@H](CCCNC(=N)N)C(=O)N[C@@H](CCCCN)C(=O)N[C@@H](CCCNC(=N)N)C(=O)N[C@@H](CCC(N)=O)C(=O)N[C@@H](CCC(N)=O)C(N)=O)[C@@H](C)CC)[C@@H](C)CC)[C@@H](C)O)[C@@H](C)O)C(C)C)C(C)C — IC50 (MCF7 FAP-transfected; cell viability, MTT; 72 h): 6.1 ± 0.3 µM
C1=C[N]2c3c4c(ccc3=C1)=CC=C[N]4[Ru+2]213([N]2C=CC=c4ccc5c(c42)[N]1C=CC=5)[N]1C=CC=c2c1c1c(c4nc5c6cccnc6c6ncccc6c5nc24)=CC=C[N]13 — IC50 (NCI-H358; cell growth or viability, MTT; 96 h): 44 µM
COC(=O)C1CN1S(=O)(=O)c1ccc(N)cc1 (centres unmarked) — IC50 (Caco-2; cell growth or viability, MTT; 48 h): 200 µM
CNC(=O)c1cc(Oc2ccc(NC(=O)c3ccc(-c4ccc(OC(=O)CCC(=O)OC5OC6OC7(C)CCC8C(C)CCC(C5C)C68OO7)cc4)cn3)cc2)ccn1 (centres unmarked) — IC50 (Huh-7; cell growth or viability, MTT; 72 h): 3.18 µM
O=C(Nc1ccc(Br)cc1)c1cc(Br)cc(Br)c1O — IC50 (HPNE; cell growth or viability, resazurin; 72 h): 9.14 µM
NC1CCCCC1N.O=C1[O][Pt]([O]C(=O)c2ccc(P(c3ccccc3)c3ccccc3)cc2)([O]C(=O)c2ccc(P(c3ccccc3)c3ccccc3)cc2)[O]C1=O.[Cl][Au].[Cl][Au] — IC50 (MDA-MB-157; cell growth or viability, resazurin; 72 h, 3D culture): 5.2 µM
CC[C@H](C)[C@H](NC(=O)[C@H](C)NC(=O)[C@@H](N)Cc1c[nH]cn1)C(=O)N[C@@H](Cc1ccc(O)cc1)C(=O)N1CCC[C@H]1C(=O)N[C@@H](CCCNC(=N)N)C(=O)N[C@@H](Cc1c[nH]cn1)C(=O)N[C@H](CO)C(=O)N[C@H](Cc1c[nH]c2ccccc12)C(=O)N[C@@H](C(=O)N[C@H](Cc1c[nH]c2ccccc12)C(=O)N[C@H](CCC(=O)O)C(=O)N[C@H](CCCCN)C(=O)N[C@H](CCCCN)C(=O)N[C@H](CC(C)C)C(=O)N[C@H](CCC(=O)O)C(=O)N[C@@H](C(=O)N[C@H](C)C(=O)N[C@@H](C(=O)N[C@H](CC(N)=O)C(=O)N[C@H](CC(C)C)C(=O)N[C@H](C)C(=O)N[C@H](Cc1c[nH]c2ccccc12)C(=O)N[C@@H](C(=O)N[C@H](C)C(=O)NCC(=O)N[C@H](CC(N)=O)C(=O)N[C@H](CO)C(=O)N[C@H](CC(N)=O)C(=O)N[C@H](CCCCN)C(=O)N[C@H](Cc1c[nH]c2ccccc12)C(=O)N[C@@H](C(=O)N[C@H](Cc1c[nH]c2ccccc12)C(=O)N[C@H](CCCCN)C(=O)O)[C@H](C)O)[C@H](C)O)C(C)C)[C@H](C)O)[C@H](C)O — IC50 (CLL patient PBMCs; cell death, PI staining flow cytometry; 90 min, room temperature, serum-free medium): 1.2 µM
C[C@H]1C(OCCCCCCCCCCCC[P+](c2ccccc2)(c2ccccc2)c2ccccc2)O[C@@H]2O[C@@]3(C)CCC4[C@H](C)CCC1[C@]42OO3 (some centres unmarked) — IC50 (OVCAR-3; cell growth or viability, MTT; 72 h): 0.101 µM
CC[C@H](C)[C@@H]1NC(=O)[C@H](CCCNC(=N)N)NC(=O)C[C@@H](c2cccc3ccccc23)NC(=O)[C@@H]2CSSC[C@H](NC(=O)C[C@@H](c3cccc4ccccc34)NC(=O)[C@H](CCCNC(=N)N)NC(=O)[C@@H]3CCCN3C(=O)[C@@H]3CCCN3C1=O)C(=O)N[C@@H](Cc1ccccc1)C(=O)N1CCC[C@H]1C(=O)N[C@@H](CC(=O)O)C(=O)N[C@@H](CC(=O)O)C(=O)N[C@@H](Cc1ccccc1)C(=O)N2 — IC50 (Calu-3; cell growth or viability, ATP luminescence; 72 h): 0.073 µM
CC(C)C[C@@H](NC(=O)CCNc1ccc([N+](=O)[O-])c2nonc12)C(=O)N[C@H](CC(C)C)C(=O)N[C@H](CC(C)C)C(=O)N[C@H](CC(C)C)C(=O)N[C@H](Cc1ccc(OP(=O)(O)O)cc1)C(=O)O — IC50 (SAOS-2; cell growth or viability, MTT; 24 h): 99 µM
O=C(Cc1ccc2ccccc2c1)N[C@H](Cc1ccc(O)cc1)C(=O)N[C@H](Cc1ccccc1)C(=O)N[C@H](Cc1ccccc1)C(=O)N[C@H](Cc1ccc(OP(=O)(O)O)cc1)C(=O)O — IC50 (SAOS-2; cell growth or viability, MTT): 283 µg/mL
COc1cc(-c2oc3cc(OC)c(OC)c(O)c3c(=O)c2OC)ccc1O — IC50 (human Neutrophil; elastase release, inhibitor): 6.66 µM
COc1cc(C(c2c(C)nn(-c3ccccc3)c2O)c2c(C)nn(-c3ccccc3)c2O)cc(OC)c1OC — IC50 (Ishikawa; cell growth or viability, MTT; 48 h): > 40 µM
CNC(=O)c1cc(Oc2ccc(NC(=O)c3cc(-c4ccccc4OC(=O)CCC(=O)OC4OC5OC6(C)CCC7C(C)CCC(C4C)C57OO6)ccn3)cc2)ccn1 (centres unmarked) — IC50 (Hep3B; cell growth or viability, MTT; 72 h): 6.15 µM
Cc1cc(C)n(C(C(=O)OC(C)C)n2nc(C)cc2C)n1.F[P-](F)(F)(F)(F)F.[Cu+].c1ccc(P(c2ccccc2)c2ccccc2)cc1 — IC50 (U-1285; cell viability, MTT): 7.3 ± 1.1 µM
CNC(=O)c1cc(Oc2ccc(NC(=O)c3ccc(-c4cccc(OC(=O)CCC(=O)OC5OC6OC7(C)CCC8C(C)CCC(C5C)C68OO7)c4)cn3)cc2)ccn1 (centres unmarked) — IC50 (Hep3B; cell growth or viability, MTT; 72 h): 4.06 µM
Cc1nn(-c2ccccc2)c(O)c1C(c1ccccc1O)c1c(C)nn(-c2ccccc2)c1O — IC50 (Ishikawa; cell growth or viability, MTT; 48 h): > 40 µM
